Experimental data gathered from unrelated publications.
Numbered parts are unrelated; each lists some results of a single study.

Study 1 — technique: protein binding microarray; molecule type: double-stranded DNA, one strand shown; medium: in vitro; tested at: not given; reference: not given; direction: higher = stronger binding; endpoint: E-score
Target: Histone acetyltransferase KAT6A, winged helix 1, GST fusion (KAT6A, Homo sapiens, UniProt Q92794, residues 1-85)
Setting: 8-mer, flanks averaged, mean of 2 arrays, mostly near background
Target sequence (chain): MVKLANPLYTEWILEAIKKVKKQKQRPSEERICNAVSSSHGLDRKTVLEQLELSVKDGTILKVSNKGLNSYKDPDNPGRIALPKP
AGATTTCA: -0.139
AATTCTCA: -0.24
ATGGAGCG: 0.0605
TCGACAGA: -0.115
ACCAGGAA: -0.173
ACCTAATG: -0.103
AGTACTTA: -0.0184
CGGCGCAG: 0.398
AGTGTAAT: -0.114
CGCCCCTA: 0.169
ATCGAGCC: 0.0428
GTGTGACA: -0.0907
TGACGGCA: 0.342
GAGCAGTA: -0.227
GTTCGAAA: 0.0604
TCTTAACA: -0.178
CGTCGTAA: 0.158
GGCAAACC: 0.122
ACCCCACT: -0.298
CGGACCCG: 0.379
GGGGATAA: -0.087
ACCGTAGA: 0.17
AACGCAAT: 0.239
ATAATGGC: 0.0702
AGGCGAGG: -0.0701

Study 2 — technique: universal PBM; molecule type: double-stranded DNA, one strand shown; medium: in vitro; tested at: 600 nM; direction: higher = stronger binding; endpoint: E-score
Target: Sal-like protein 4, full length isoform A (SALL4, Homo sapiens, UniProt Q9UJQ4, residues 1-1053)
Sequence of UniProt Q9UJQ4 (whole entry, looked up): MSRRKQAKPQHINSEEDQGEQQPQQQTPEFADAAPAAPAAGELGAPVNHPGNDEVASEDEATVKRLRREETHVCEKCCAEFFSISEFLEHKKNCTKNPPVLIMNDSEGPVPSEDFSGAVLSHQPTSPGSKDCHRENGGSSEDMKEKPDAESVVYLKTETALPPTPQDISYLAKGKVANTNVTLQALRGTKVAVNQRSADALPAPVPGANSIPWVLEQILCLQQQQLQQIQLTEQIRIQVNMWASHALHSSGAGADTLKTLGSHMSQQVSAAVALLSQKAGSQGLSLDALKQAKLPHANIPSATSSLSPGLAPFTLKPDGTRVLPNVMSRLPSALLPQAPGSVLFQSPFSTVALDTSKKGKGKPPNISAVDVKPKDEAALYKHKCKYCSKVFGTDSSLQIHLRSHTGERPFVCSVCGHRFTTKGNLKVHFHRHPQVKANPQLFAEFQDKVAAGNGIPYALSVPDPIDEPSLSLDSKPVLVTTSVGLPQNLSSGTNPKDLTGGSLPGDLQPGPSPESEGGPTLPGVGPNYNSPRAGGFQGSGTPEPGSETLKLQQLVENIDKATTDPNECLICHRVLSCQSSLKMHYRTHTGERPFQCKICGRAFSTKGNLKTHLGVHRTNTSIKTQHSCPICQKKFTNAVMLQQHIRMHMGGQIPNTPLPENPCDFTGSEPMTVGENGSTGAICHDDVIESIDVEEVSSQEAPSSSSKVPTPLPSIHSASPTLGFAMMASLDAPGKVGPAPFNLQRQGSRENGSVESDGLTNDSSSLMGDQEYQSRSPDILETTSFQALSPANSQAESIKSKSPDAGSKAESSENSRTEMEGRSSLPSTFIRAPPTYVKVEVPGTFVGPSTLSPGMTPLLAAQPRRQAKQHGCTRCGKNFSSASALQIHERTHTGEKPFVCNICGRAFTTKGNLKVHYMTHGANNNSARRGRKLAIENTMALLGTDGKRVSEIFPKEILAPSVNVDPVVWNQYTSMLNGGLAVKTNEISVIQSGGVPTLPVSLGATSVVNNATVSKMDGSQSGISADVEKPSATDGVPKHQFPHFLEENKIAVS
Setting: 8-mer, flanks averaged, mean of replicates
GCCGTAAC: 0.00177
AGCAACAT: 0.126
AAGGGACG: -0.22
GGACAAAC: -0.0805
GAAATCAA: 0.166
AAGTAATT: 0.363
GACGGGAA: -0.0551
CGTGATCA: 0.0915
CCTGATGA: -0.0673
AAACCTGG: -0.186
ATAACTCC: 0.238
ATCCCTAC: 0.0329
CGAAGTTC: -0.0216
AAAATTCA: 0.343
AGGGCATA: 0.186
GGTACCAC: -0.198
ACGGGAAT: -0.019
CCGACAGC: -0.32

Study 3 — technique: RNA Bind-n-Seq; molecule type: RNA; medium: in vitro; tested at: 365 nM; reference: no-protein control; direction: higher = stronger binding; endpoint: RBNS enrichment (R)
Target: RNA binding protein fox-1 homolog 2, RRM domain, GST-SBP tag (RBFOX2, Homo sapiens, UniProt O43251-10, residues 100-194)
Setting: natural RNA segment, single round, ends assumed
All sequences stand within: GGGAGUUCUACAGUCCGACGAUC … UGGAAUUCUCGGGUGCCAA
Residues (chain): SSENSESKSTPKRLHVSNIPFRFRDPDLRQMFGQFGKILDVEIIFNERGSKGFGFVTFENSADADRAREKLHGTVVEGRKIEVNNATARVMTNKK
UUCUGGAGAGGUUAUUUCUGCAUGGAAACUCAACUUCUUGGAUUAGCUAUCUUGAGUGAAAGUCCUCACUGACGAGUAUGCAAACCAAAUAGCCUCCUGCACAGUAGCCU: 0.597
ACCAGGAGACUCGGGCUUCGUUUCUUCAUGGCAAGUCUUCAGAGUUAAUUUUCUUUAGAUGUGUAAAACUGUUCAUUGUAGUGUAAAUGUCAGGGUCUGUUCUAGUCUAU: 0.387
UUGCUCUUGGAAAGGACAUCAGGUGUGGGCAAAGCAUCCUUGAAGCCCAGACAACACAGGCAUGGCCUGCGUGCCCUCCCAGCAUCUGCUGCGAUGGCCUCAAGGCCUCU: 0.474
GACAAGAAAUCCUAGUGGCCUCCCAGACUGCAGGGUCCCCAAGGAUGGAAAGGGAAUGUUCUGCUGGUUCUACCCUGUUUGUUGUGUCUUGCUAUACAGAAAAACCACAU: 3.02
CUGUCUAACGAAUAGCACAUAACUCAUAUUGUGAAUCCUAUGGGUCUUGAGGCCUGUAGAACCAAUCUUGUAAACCAAGAUGCCUUGUUCUUGGAAGUUACAAAAGAAGC: 0.927
UGCUCCUUCUACCUACCGGUCAGUGCAUUCAGAAGUGGACAGCUCCCGGAAGGCCGAGUUCUGGUAUUGCUGAGGUUGCCCUGACAUAGCUUUCCAUGUAUCCUGUUAUU: 0.445
AACAGUGUGGUUGAAUACAUUUAAUGCCAGCCAUUGGAAACUAGUUUUAGGCAACCACUCUCAAAAACAGCUUUAGAAUUUAUGCCCAGUUUUCUUGCAUUGAAAGAUAA: 0.253
UCCAUGCUUUUUCUAUCCCAUCCUCUCUCUGUGCCCUCCUGCAAUGGCAGCCUUGGCACAAUGCCUGGGUGUCCUCAUCCUUGCUUUACUCUGGAAAGUGUGGGGAUGGA: 0.745

Study 4 — technique: RNA Bind-n-Seq; molecule type: RNA; medium: in vitro; tested at: 200 nM; setting: whole 134-nt RNA, ends assumed; together with: 150 mM LiCl; reference: input library; direction: higher = stronger binding; endpoint: log2 enrichment; library: 7-deaza-guanosine replaces G
Target: Ras GTPase-activating protein-binding protein 1, full length (G3BP1, Homo sapiens, UniProt Q13283)
Sequence of UniProt Q13283 (whole entry, looked up): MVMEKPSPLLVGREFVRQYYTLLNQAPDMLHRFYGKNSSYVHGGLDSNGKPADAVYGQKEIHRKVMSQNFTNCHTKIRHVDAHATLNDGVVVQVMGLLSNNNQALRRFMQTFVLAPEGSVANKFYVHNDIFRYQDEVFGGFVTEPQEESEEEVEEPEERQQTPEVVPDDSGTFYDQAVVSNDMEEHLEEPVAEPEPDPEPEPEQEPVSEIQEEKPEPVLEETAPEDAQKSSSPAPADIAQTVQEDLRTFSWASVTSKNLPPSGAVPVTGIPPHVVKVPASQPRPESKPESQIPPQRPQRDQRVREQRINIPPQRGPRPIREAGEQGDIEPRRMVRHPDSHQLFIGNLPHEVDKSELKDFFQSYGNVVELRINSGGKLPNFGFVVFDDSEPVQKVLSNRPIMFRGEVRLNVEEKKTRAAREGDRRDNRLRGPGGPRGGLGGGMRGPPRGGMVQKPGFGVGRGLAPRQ
All sequences stand within: GGGAGUUCUACAGUCCGACGAUC … UGGAAUUCUCGGGUGUCAAGG
AAGUCCUGUGCUACACAUCGUAUGUACCGAAUCGGGGAGGGGUUUUUGGGGUGGGGAAAGUAUUAUGUUACGCCGUUCGGAUCUGCACUU: 0.502
GAACUUUAGAGGAGGAUCUGAUGGAUAUGGCAGUGGACGUGGAUUUGGGGAUGGCUAUAAUGGGUAUGGAGGAGGACCUGGAGGUGGCAA: 0.118
ACGAUGCAGGUGGGCAUCUUUGGGAAGUGGGGCAAGGGGGGGAUAGGGAGGGGGGUAACACUUUGGGAACAGGUGGUCCCAGGUCGUUUC: 0.478
AAGUCCUGUGCUACACAUCGUAUGUACCGAAUCGGCCCCGGGCCCCGGGCCCCGGGAAAGUAUUAUGUUACGCCGUUCGGAUCUGCACUU: -1.49
UAACUUUAGAGGAGGAUCUGAUGGAUAUGGCAGUGGACGUGGAUUUGGGGAUGGCUAUAAUCGGUAUGGAGGAGGACCUGGAGGUGGCAA: 0.298
AGUCCUGUGCUACACAUCGUAUGUACCGAAUCGGAAAAAGGAAAAAGGGGAAAAAGGAAAGUAUUAUGUUACGCCGUUCGGAUCUGCACU: -1.17
UCAAGUCCUGUGCUACACAUCGUAUGUACCGAAUCGGGAAGGAAGGGGAAGGGGAAAGUAUUAUGUUACGCCGUUCGGAUCUGCACUUCC: -0.141
CAAGUCCUGUGCUACACAUCGUAUGUACCGAAUCGGAAAAGGGGAAAAGGAAAAGGAAAGUAUUAUGUUACGCCGUUCGGAUCUGCACUU: -1.04

Excerpt of the above (study 2):
CCTGATGA: -0.0673
AAACCTGG: -0.186
ATAACTCC: 0.238
ATCCCTAC: 0.0329
CGAAGTTC: -0.0216
AAAATTCA: 0.343
AGGGCATA: 0.186
